{"data": "Experimental data from different studies", "BCHE": "Cholinesterase (BCHE, Homo sapiens, UniProt P06276)", "Mycosin-1": "Mycosin-1 (Mycolicibacterium thermoresistibile, UniProt G7CDQ2)", "ACHE": "Acetylcholinesterase (ACHE, Homo sapiens, UniProt P22303)", "note": "Lines come from different studies, so protocols differ. Numbers after ± are the reported error.", "sequence of UniProt P06276 (whole entry, looked up)": "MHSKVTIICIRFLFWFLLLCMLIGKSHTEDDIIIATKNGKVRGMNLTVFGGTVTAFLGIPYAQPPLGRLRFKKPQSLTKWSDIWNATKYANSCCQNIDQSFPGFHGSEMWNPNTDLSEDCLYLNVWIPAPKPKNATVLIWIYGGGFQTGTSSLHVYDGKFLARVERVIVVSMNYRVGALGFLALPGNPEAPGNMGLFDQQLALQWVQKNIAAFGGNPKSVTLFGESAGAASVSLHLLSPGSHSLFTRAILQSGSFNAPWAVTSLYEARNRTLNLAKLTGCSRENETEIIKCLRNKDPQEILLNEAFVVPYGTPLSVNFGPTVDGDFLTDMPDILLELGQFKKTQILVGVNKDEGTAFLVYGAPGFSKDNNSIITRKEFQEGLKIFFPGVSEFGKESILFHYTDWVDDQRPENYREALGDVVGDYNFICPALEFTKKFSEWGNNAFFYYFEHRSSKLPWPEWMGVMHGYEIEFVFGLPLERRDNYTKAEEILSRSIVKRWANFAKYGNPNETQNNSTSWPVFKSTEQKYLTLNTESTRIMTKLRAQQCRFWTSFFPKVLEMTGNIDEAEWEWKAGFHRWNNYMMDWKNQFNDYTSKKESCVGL", "sequence of UniProt P22303 (whole entry, looked up)": "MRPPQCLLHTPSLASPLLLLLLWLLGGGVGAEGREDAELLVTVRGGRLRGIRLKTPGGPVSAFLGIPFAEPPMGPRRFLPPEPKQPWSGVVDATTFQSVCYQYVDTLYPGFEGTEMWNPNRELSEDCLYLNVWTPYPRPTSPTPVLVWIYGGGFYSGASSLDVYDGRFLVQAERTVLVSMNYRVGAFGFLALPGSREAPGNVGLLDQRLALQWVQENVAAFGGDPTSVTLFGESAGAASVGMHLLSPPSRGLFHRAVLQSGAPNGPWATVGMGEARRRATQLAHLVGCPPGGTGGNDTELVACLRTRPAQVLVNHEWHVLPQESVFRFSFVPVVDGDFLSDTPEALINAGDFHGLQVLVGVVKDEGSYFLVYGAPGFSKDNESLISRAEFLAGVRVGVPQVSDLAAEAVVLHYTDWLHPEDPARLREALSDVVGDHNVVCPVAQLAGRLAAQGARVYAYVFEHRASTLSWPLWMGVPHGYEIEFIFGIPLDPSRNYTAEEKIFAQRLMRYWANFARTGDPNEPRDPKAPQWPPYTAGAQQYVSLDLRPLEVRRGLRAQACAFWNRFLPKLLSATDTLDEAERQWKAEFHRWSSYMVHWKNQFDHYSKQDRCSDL", "sequence of UniProt P30530 (whole entry, looked up)": "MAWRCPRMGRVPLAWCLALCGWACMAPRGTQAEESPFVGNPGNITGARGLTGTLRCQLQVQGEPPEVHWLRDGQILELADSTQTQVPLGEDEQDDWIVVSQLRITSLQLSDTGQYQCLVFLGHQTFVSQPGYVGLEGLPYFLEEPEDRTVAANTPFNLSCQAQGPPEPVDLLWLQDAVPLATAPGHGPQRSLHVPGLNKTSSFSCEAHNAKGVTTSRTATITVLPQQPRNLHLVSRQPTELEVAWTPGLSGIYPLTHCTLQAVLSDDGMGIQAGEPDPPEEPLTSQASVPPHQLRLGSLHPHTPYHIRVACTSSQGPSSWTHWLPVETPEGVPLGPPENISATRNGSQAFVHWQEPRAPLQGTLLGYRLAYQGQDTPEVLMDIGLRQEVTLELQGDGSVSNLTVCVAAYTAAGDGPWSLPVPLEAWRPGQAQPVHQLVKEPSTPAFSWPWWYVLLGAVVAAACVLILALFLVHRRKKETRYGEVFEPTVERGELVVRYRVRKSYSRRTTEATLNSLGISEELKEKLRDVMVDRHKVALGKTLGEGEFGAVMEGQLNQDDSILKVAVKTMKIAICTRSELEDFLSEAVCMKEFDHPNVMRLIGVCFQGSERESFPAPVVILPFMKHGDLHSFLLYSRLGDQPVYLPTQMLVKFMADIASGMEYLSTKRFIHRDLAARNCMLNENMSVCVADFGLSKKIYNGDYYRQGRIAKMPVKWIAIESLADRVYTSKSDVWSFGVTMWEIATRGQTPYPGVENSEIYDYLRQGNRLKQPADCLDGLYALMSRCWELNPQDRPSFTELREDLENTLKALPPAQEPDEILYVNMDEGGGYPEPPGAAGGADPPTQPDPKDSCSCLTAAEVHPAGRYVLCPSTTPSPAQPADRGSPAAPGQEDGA", "sequence of UniProt P07237 (whole entry, looked up)": "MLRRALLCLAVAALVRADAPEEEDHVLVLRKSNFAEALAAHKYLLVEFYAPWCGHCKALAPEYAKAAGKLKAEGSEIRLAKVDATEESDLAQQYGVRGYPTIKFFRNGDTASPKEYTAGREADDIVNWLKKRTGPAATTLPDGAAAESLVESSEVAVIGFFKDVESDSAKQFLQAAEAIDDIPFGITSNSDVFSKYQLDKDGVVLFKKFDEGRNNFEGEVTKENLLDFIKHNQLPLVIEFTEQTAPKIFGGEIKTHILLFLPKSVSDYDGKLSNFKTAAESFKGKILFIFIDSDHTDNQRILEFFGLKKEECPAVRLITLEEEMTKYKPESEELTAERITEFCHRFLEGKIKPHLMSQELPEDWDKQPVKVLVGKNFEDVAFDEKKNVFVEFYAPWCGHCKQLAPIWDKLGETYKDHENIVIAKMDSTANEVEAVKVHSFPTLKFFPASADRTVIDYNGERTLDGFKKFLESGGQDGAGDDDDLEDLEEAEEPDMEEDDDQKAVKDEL", "sequence of UniProt P47117 (whole entry, looked up)": "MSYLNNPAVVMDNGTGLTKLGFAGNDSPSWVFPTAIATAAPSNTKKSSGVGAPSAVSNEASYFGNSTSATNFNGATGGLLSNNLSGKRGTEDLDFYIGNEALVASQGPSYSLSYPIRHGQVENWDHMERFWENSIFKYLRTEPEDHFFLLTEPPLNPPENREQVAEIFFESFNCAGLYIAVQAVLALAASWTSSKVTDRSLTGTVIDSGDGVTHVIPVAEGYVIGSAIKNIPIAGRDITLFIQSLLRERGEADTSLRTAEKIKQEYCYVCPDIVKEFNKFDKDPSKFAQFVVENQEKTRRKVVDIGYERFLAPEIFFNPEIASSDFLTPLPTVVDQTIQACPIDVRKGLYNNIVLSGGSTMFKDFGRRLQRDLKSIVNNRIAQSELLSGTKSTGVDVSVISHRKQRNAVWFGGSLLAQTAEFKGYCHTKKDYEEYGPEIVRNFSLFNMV", "sequence of UniProt P97266 (whole entry, looked up)": "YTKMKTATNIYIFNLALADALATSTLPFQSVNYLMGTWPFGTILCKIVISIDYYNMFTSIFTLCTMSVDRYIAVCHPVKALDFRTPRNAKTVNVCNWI", "sequence of UniProt P31749 (whole entry, looked up)": "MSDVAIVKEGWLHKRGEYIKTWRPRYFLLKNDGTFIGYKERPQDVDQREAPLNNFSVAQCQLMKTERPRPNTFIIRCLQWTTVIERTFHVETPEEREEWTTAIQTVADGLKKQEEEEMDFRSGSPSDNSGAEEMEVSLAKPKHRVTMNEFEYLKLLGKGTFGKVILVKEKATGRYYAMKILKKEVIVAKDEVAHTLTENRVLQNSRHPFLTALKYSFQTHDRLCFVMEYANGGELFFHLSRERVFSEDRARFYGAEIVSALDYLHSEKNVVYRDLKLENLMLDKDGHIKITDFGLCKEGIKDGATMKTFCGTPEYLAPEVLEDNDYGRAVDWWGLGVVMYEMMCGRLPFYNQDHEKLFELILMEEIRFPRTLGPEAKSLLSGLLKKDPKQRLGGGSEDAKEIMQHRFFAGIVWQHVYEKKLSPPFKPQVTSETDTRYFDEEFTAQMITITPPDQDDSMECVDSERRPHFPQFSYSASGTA", "sequence of UniProt Q98982 (whole entry, looked up)": "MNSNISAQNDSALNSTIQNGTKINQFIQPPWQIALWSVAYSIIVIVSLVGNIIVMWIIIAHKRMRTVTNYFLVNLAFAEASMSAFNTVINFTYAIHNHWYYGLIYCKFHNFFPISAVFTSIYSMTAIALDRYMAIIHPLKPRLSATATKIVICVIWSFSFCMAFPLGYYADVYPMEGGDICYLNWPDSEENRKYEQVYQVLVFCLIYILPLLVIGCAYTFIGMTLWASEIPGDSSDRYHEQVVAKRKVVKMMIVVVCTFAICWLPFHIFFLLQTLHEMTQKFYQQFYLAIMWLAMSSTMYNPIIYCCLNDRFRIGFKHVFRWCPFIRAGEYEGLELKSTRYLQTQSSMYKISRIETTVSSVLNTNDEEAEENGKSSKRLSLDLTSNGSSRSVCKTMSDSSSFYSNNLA", "sequence of UniProt P35354 (whole entry, looked up)": "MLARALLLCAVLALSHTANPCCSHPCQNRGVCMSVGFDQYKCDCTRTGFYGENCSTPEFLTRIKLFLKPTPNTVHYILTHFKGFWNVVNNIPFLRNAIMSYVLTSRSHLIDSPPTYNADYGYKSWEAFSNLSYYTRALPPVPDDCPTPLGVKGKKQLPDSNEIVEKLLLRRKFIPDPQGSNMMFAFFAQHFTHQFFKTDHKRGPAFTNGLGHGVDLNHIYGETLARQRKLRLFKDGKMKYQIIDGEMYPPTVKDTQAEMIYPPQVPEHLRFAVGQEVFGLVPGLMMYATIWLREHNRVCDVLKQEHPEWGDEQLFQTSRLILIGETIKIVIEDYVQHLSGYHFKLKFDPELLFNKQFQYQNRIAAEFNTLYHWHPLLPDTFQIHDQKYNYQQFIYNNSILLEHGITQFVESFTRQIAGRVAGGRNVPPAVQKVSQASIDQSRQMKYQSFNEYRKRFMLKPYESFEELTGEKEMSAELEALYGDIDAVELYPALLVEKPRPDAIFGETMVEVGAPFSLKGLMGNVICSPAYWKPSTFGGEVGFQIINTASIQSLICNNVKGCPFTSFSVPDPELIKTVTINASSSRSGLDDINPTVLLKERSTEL", "sequence of UniProt P19256 (whole entry, looked up)": "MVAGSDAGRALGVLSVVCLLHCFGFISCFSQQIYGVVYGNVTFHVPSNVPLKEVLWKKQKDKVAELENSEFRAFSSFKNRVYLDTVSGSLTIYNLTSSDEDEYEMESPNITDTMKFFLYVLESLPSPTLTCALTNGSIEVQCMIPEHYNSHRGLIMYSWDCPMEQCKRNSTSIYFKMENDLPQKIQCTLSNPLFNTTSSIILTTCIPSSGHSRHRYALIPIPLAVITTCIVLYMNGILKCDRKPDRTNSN"}
{"Compound": "CN(C)C=Nc1c(C#N)cnn1-c1ccc(F)c(Cl)c1", "target": "Aurora kinase B-A (Xenopus laevis, UniProt Q6DE08)", "assay": "kinase activity", "setting": "concentration not given", "inhibition": "no inhibition"}
{"Compound": "CSCC[C@H](NC(=O)[C@H](CC(C)C)NC(=O)CNC(=O)[C@H](Cc1ccccc1)NC(=O)[C@H](Cc1ccccc1)NC(=O)[C@H](CCC(N)=O)NC(=O)[C@H](CCC(N)=O)NC(=O)[C@@H]1CCCN1C(=O)[C@H](CCCCNC(=O)c1ccc(-c2c3ccc(=[N+](C)C)cc-3oc3cc(N(C)C)ccc23)c(C(=O)[O-])c1)NC(=O)[C@@H]1CCCN1C(=O)[C@@H](N)CCCNC(=N)N)C(N)=O", "target": "Substance-P receptor (TACR1, Aquarana catesbeiana, UniProt Q98982)", "assay": "M-type K+ current, whole-cell patch clamp", "system": "bullfrog sympathetic neurons", "setting": "1 µM", "inhibition": "57 ± 33%"}
{"Compound": "O=c1c(O)c(-c2cc(O)ccc2O)oc2cc(O)cc(O)c12", "target": "BCHE", "assay": "enzyme activity, inhibitor, Ellman", "setting": "62.5 µg/mL", "inhibition": "45.2%"}
{"Compound": "COc1cccc(/C=C/C(=O)C(c2ccccc2)c2ccccc2)c1OC", "target": "PTGS2 (Homo sapiens, UniProt P35354)", "assay": "enzyme activity, inhibitor, ELISA", "setting": "40 µg/mL", "inhibition": "80.7 to 92.5%"}
{"Compound": "CC(C)C(O)C(NC(=O)[C@H](Cc1ccc(O)cc1)NC(=O)C(Cc1ccc(O)cc1)[N+](C)(C)C)C(=O)N[C@@H](C)C(=O)O (stereo partly shown)", "target": "Gag-Pol polyprotein, protease (gag-pol, Human immunodeficiency virus type 1 group M subtype B, UniProt P04585)", "assay": "enzyme activity", "setting": "concentration not given", "inhibition": "inactive"}
{"Compound": "Cc1ccc(N2CC3CCC(C2)N3C)cc1C(=O)N[C@H](C)c1cc(-c2cnn(C)c2)nc2ccccc12", "target": "USP15 (Homo sapiens, UniProt Q9Y4E8)", "assay": "enzyme activity", "setting": "concentration not given", "inhibition": "no inhibition"}
{"Compound": "CCCC[C@@H]1NC(=O)[C@H](Cc2ccccc2)NC(=O)CNC(=O)[C@H](NC(=O)[C@@H](N)Cc2ccc(O)cc2)C(C)(C)SSC(C)(C)[C@H](C(=O)N[C@@H](Cc2c[nH]c3ccccc23)C(=O)NCc2cc(C(F)(F)F)cc(C(F)(F)F)c2)NC(=O)[C@@H]2CCCN2C1=O", "target": "OPRM1 (Cavia porcellus, UniProt P97266)", "assay": "electrically stimulated contraction, agonist", "system": "guinea pig isolated ileum", "setting": "1 µM", "inhibition": "7%"}
{"Compound": "COc1ccc(N2C(=O)CSC2c2cccc(Br)c2)c(OC)c1 (stereo not shown)", "target": "ARP2/ARP3 (Saccharomyces cerevisiae, UniProt P32381+P47117)", "assay": "actin polymerization, pyrenyl-actin", "setting": "concentration not given", "inhibition": "no inhibition"}
{"Compound": "COc1ccccc1/N=N/[C@H](C#N)C(N)=O", "target": "Mycosin-1", "assay": "enzyme activity", "setting": "150 µM", "scale": "relative to: DMSO control", "inhibition": "41%"}
{"Compound": "CC[C@H](C)[C@@H]1NC(=O)[C@@H]2CCCN2C(=O)[C@@H]2CCCN2C(=O)[C@H]([C@@H](C)CC)NC(=O)[C@H](CO)NC(=O)[C@H](CCCCN)NC(=O)[C@H]([C@@H](C)O)NC(=O)[C@@H]2CSSC[C@H](NC1=O)C(=O)N[C@@H](Cc1ccccc1)C(=O)N1CCC[C@H]1C(=O)N[C@@H](CC(=O)O)C(=O)NCC(=O)N[C@@H](CCCNC(=N)N)C(=O)N2", "target": "Lymphocyte function-associated antigen 3, with CD2 (CD58, Homo sapiens, UniProt P19256)", "system": "Jurkat", "setting": "5 µM", "inhibition": "< 20%"}
{"Compound": "O=C(O)CCCC(=O)O", "target": "BCHE", "assay": "enzyme activity, inhibitor, Ellman", "setting": "62.5 µg/mL", "inhibition": "40.1%"}
{"Compound": "CC(C)C[C@@H]1NC(=O)[C@H](C(C)C)NC(=O)[C@H](C)NC(=O)[C@H](Cc2ccc(O)cc2)NC(=O)[C@H](CCC(N)=O)NC(=O)[C@H](CC(C)C)NC(=O)[C@@H](Cc2ccc(O)cc2)NC(=O)CSC[C@@H](C(N)=O)NC(=O)[C@H](CCC(=O)O)NC(=O)[C@H](CCCNC(=N)N)NC(=O)[C@H](CCCNC(=N)N)NC(=O)[C@H](CCCCN)NC(=O)[C@H](Cc2c[nH]cn2)NC(=O)[C@H](CCCNC(=N)N)NC1=O", "target": "TMPRSS2 (Homo sapiens, UniProt O15393)", "assay": "enzyme activity", "setting": "10 µM", "inhibition": "inactive"}
{"Compound": "Cc1cc(C)n(C(C(=O)OC(C)C)n2nc(C)cc2C)n1.F[P-](F)(F)(F)(F)F.[Cu+].c1ccc(P(c2ccccc2)c2ccccc2)cc1", "target": "P4HB (Homo sapiens, UniProt P07237)", "assay": "enzyme activity, inhibitor", "setting": "50 µM", "inhibition": "~90%"}
{"Compound": "[Cl][Au-][P+](c1ccccc1)(c1ccccc1)c1cc[cH-]c1.[Cl][Au-][P+](c1ccccc1)(c1ccccc1)c1cc[cH-]c1.[Cl][Ti+2][Cl]", "target": "AKT2 (Homo sapiens, UniProt P31751)", "assay": "kinase activity", "setting": "10 µM", "inhibition": "≥ 50%"}
{"Compound": "C=C1C(=O)N[C@@H](C)C(=O)N(C)[C@@H](C)C(=O)N[C@@H]([C@H](OC(=O)[C@@H](NC(C)=O)[C@H](O)C(C)C)C(C)C)C(=O)N(C)[C@@H]([C@@H](C)OC)C(=O)O[C@H](C)[C@H](NC(C)=O)C(=O)O[C@H](Cc2ccccc2)C(=O)N1C", "target": "Guanine nucleotide-binding protein subunit alpha-11 (Homo sapiens, UniProt P29992, R183C)", "assay": "basal IP1 accumulation, inhibitor", "system": "HEK293 expressing Gα11 R183C", "setting": "concentration not given", "inhibition": "inhibited"}
{"Compound": "Cc1cc(C(=O)Nc2nc3cccc(C)c3n2[C@H]2CCCCN(C(=O)/C=C/CN(C)C)C2)ccn1", "target": "Trypanosoma brucei CLK1 C215A", "assay": "enzyme activity, ADP-Glo", "setting": "concentration not given", "inhibition": "no inhibition"}
{"Compound": "N#C[C@@H](/N=N/c1ccccc1)C(=O)c1ccccc1", "target": "Mycosin-1", "assay": "enzyme activity", "setting": "150 µM", "scale": "relative to: DMSO control", "inhibition": "59%"}
{"Compound": "O=C(C[P+]([Au-][Cl])(c1ccccc1)c1ccccc1)[O][Ti+2][O]C(=O)C[P+]([Au-][Cl])(c1ccccc1)c1ccccc1.c1cc[cH-]c1.c1cc[cH-]c1", "target": "AKT1 (Homo sapiens, UniProt P31749)", "assay": "kinase activity", "setting": "10 µM", "inhibition": "≥ 50%"}
{"Compound": "O=C(O)/C=C/c1cc(O)cc(O)c1", "target": "BCHE", "assay": "enzyme activity, inhibitor, Ellman", "setting": "125 µg/mL", "inhibition": "54.2%"}
{"Compound": "CC(=O)NC(Cc1ccc(Br)c(Cl)c1)C(=O)N[C@@H](C)C(=O)N1CCC[C@H]1C(=O)N1CCC[C@H]1C(=O)N[C@@H](CCC(=O)O)C(=O)N[C@@H](Cc1c[nH]cn1)C(=O)N[C@@H](CO)C(=O)N[C@H](C(=O)N[C@@H](C)C(N)=O)[C@@H](C)OP(=O)(O)O (stereo partly shown)", "target": "AXL (Homo sapiens, UniProt P30530)", "assay": "enzyme activity, inhibitor", "setting": "10 µM", "inhibition": "0.13%"}
{"Compound": "CC(NC(=O)C=Cc1ccco1)C(=O)NC(Cc1ccccc1)C(N)=O (stereo not shown)", "target": "Mycosin-1", "assay": "enzyme activity", "setting": "150 µM", "scale": "relative to: DMSO control", "inhibition": "61%"}
{"Compound": "O=C(O)/C=C/c1ccc(O)cc1", "target": "ACHE", "assay": "inhibitor", "setting": "62.5 µg/mL", "inhibition": "48.2 ± 1.4%"}
{"Compound": "S=C(NCc1ccccn1)NCc1ccccn1", "target": "ACHE", "assay": "enzyme activity, inhibitor", "setting": "1000 µg/mL", "inhibition": "78.7%"}
{"Compound": "CC(C)C[C@@H]1NC(=O)[C@H](CCCNC(=N)N)NC(=O)[C@H](CCCCN)NC(=O)[C@H](CC(=O)O)NC(=O)[C@H](C)NC(=O)[C@@H](CO)NC1=O", "target": "Disintegrin and metalloproteinase domain-containing protein 8 (Homo sapiens, UniProt P78325)", "assay": "CD23 shedding, ELISA", "system": "COS-7, transfected with target and CD23", "setting": "concentration not given, dose-response", "inhibition": "no effect"}
{"Compound": "Cc1ccc(C(=O)Nc2cccc3cnccc23)cc1S(=O)(=O)N1CCCCC1", "target": "Trpv1 (Rattus norvegicus, UniProt O35433)", "assay": "capsaicin-activated current, inhibitor, two-electrode voltage clamp", "system": "Xenopus oocytes", "setting": "100 µM, added: capsaicin 1 µM", "inhibition": "inhibited"}
{"note": "Repeated from above:"}
{"Compound": "CC(C)C[C@@H]1NC(=O)[C@H](CCCNC(=N)N)NC(=O)[C@H](CCCCN)NC(=O)[C@H](CC(=O)O)NC(=O)[C@H](C)NC(=O)[C@@H](CO)NC1=O", "target": "Disintegrin and metalloproteinase domain-containing protein 8 (Homo sapiens, UniProt P78325)", "assay": "CD23 shedding, ELISA", "system": "COS-7, transfected with target and CD23", "setting": "concentration not given, dose-response", "inhibition": "no effect"}
